{"data": "Assay results from different studies", "target": "5-hydroxytryptamine receptor 2A (HTR2A, Homo sapiens, UniProt P28223)", "note": "Compare with care: the assays were run in different laboratories.", "UniProt P28223, sequence (whole entry, looked up)": "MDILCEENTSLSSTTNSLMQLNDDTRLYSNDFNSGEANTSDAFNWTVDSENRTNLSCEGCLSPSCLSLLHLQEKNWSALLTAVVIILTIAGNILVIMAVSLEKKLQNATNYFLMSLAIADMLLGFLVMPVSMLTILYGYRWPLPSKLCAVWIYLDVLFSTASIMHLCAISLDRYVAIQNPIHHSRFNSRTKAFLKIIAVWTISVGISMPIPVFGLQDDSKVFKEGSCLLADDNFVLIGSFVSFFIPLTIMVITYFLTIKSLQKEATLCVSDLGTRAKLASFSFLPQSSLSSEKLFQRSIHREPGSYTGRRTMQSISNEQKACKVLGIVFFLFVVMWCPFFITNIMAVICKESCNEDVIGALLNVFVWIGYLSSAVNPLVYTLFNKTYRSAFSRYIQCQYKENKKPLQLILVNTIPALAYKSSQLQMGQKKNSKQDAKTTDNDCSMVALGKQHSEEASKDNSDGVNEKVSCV"}
{"SMILES": "C/C=C1/CN2CCc3c([nH]c4ccccc34)[C@@H]2C[C@@H]1/C(=C\\OC)C(=O)OC", "assay": "inositol phosphate, antagonist", "endpoint": "IC50", "result": "2310 nM"}
{"SMILES": "COc1c(OCCOCCOCCOCCOc2cccc(C(=O)C3CCN(CCc4ccc(F)cc4)CC3)c2OC)cccc1C(=O)C1CCN(CCc2ccc(F)cc2)CC1", "assay": "ligand displacement, radioligand", "endpoint": "Ki", "result": "5.8 nM"}
{"SMILES": "COc1cc(C(CN)OC)c(OC)cc1C (stereo not drawn)", "assay": "ligand displacement in cells, radioligand", "endpoint": "Ki", "result": "1.91 nM"}
{"SMILES": "COc1c(O)cccc1C(=O)C1CCN(CCc2ccc(F)cc2)CC1", "assay": "phosphorylation in cells, antagonist", "endpoint": "IC50", "result": "10.1 nM"}
{"SMILES": "COc1ccc2[nH]cc(CC(C)N)c2c1 (stereo not drawn)", "assay": "ligand displacement in cells, radioligand", "endpoint": "Ki", "result": "3.12 nM"}
{"SMILES": "CN1CCC=C(c2cc(F)cc3[nH]ccc23)C1", "assay": "ligand displacement, radioligand", "conditions": "cell membranes", "endpoint": "Ki", "result": "207 nM"}
{"SMILES": "CC(=O)Oc1cccc2[nH]cc(CC[N+](C)(C)C)c12", "assay": "ligand displacement, radioligand", "conditions": "cell membranes", "endpoint": "Ki", "result": "> 10000 nM"}
{"SMILES": "COc1cc(CCNCc2ccccc2F)c(OC)cc1I", "assay": "ligand displacement in cells, radioligand", "endpoint": "Ki", "result": "10 nM"}
{"SMILES": "COc1c(OCCOCCOCCOc2cccc(C(=O)C3CCN(CCc4ccc(F)cc4)CC3)c2OC)cccc1C(=O)C1CCN(CCc2ccc(F)cc2)CC1", "assay": "phosphorylation in cells, antagonist", "endpoint": "IC50", "result": "25.6 nM"}
{"SMILES": "Cc1cc(C2=CCN(CC3OCCO3)CC2)cc([N+](=O)[O-])c1N", "assay": "β-arrestin recruitment, agonist", "endpoint": "EC50", "result": "4900 nM"}
{"SMILES": "C/C(=N\\OCCCN1CCCCC1)c1ccc(C(F)(F)F)cc1", "assay": "inositol phosphate, antagonist", "endpoint": "IC50", "result": "1620 nM"}
{"SMILES": "COc1c(OCCOCCOCCOCCOCCOc2cccc(C(=O)C3CCN(CCc4ccc(F)cc4)CC3)c2OC)cccc1C(=O)C1CCN(CCc2ccc(F)cc2)CC1", "assay": "ligand displacement, radioligand", "endpoint": "Ki", "result": "3.4 nM"}
